{"data": "Results of several laboratories", "note": "Every numbered part comes from another study and shows a few of its results, in no order. “And” joins repeats or separate records; there may be more than shown.", "chain of UniProt P42336 (whole entry, unmodified, looked up)": "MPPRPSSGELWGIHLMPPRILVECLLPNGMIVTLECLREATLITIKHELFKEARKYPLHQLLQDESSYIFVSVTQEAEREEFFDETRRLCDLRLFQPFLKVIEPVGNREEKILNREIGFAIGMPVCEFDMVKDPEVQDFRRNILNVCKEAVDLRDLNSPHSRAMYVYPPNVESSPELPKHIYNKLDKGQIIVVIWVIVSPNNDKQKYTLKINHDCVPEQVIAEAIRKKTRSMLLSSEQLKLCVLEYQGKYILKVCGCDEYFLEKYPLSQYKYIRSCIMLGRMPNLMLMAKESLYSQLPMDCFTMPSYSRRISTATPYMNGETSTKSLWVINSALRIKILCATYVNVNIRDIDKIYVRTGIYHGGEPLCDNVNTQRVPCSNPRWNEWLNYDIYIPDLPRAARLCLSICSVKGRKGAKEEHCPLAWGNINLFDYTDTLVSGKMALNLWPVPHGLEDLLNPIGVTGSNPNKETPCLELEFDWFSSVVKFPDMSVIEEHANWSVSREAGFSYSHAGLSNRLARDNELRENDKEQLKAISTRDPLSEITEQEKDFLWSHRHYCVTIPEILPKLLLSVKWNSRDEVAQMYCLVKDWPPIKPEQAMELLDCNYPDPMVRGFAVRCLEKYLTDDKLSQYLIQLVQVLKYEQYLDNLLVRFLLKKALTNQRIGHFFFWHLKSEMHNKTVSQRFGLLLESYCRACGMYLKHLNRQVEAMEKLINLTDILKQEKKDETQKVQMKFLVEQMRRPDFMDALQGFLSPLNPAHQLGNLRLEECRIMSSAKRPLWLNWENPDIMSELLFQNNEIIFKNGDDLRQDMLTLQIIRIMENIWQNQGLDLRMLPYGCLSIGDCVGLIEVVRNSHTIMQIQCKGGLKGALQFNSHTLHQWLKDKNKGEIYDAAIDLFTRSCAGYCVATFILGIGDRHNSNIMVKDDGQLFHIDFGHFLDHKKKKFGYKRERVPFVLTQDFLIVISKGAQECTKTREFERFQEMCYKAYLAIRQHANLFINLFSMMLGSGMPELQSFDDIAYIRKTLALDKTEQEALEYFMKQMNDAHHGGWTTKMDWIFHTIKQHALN", "chain of UniProt Q8WTQ7 (whole entry, looked up)": "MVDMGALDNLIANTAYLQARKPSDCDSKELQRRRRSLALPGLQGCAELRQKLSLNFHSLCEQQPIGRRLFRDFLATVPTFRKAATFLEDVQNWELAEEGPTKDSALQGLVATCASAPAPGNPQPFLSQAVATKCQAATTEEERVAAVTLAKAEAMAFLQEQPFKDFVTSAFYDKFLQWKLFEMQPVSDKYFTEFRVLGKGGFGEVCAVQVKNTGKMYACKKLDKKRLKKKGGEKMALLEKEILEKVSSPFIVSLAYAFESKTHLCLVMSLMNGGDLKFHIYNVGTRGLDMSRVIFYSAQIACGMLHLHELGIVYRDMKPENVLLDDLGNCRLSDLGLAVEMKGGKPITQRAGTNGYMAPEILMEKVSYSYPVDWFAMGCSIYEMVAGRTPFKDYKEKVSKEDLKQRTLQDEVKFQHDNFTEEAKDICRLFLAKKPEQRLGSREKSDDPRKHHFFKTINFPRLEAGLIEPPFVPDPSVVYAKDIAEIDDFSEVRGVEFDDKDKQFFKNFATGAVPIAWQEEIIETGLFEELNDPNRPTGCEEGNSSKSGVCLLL", "chain of UniProt Q96PF2 (whole entry, looked up)": "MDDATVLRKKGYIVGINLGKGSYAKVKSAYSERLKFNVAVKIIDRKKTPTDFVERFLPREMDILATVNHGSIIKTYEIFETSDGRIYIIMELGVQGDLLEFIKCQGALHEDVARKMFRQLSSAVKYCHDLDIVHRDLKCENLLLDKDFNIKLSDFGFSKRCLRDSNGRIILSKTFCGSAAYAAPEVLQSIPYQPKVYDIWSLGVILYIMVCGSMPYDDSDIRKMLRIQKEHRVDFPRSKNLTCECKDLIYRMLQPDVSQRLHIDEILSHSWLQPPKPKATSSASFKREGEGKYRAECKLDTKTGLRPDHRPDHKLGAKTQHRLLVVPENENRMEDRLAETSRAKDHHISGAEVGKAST", "chain of UniProt Q56UN5 (whole entry, looked up)": "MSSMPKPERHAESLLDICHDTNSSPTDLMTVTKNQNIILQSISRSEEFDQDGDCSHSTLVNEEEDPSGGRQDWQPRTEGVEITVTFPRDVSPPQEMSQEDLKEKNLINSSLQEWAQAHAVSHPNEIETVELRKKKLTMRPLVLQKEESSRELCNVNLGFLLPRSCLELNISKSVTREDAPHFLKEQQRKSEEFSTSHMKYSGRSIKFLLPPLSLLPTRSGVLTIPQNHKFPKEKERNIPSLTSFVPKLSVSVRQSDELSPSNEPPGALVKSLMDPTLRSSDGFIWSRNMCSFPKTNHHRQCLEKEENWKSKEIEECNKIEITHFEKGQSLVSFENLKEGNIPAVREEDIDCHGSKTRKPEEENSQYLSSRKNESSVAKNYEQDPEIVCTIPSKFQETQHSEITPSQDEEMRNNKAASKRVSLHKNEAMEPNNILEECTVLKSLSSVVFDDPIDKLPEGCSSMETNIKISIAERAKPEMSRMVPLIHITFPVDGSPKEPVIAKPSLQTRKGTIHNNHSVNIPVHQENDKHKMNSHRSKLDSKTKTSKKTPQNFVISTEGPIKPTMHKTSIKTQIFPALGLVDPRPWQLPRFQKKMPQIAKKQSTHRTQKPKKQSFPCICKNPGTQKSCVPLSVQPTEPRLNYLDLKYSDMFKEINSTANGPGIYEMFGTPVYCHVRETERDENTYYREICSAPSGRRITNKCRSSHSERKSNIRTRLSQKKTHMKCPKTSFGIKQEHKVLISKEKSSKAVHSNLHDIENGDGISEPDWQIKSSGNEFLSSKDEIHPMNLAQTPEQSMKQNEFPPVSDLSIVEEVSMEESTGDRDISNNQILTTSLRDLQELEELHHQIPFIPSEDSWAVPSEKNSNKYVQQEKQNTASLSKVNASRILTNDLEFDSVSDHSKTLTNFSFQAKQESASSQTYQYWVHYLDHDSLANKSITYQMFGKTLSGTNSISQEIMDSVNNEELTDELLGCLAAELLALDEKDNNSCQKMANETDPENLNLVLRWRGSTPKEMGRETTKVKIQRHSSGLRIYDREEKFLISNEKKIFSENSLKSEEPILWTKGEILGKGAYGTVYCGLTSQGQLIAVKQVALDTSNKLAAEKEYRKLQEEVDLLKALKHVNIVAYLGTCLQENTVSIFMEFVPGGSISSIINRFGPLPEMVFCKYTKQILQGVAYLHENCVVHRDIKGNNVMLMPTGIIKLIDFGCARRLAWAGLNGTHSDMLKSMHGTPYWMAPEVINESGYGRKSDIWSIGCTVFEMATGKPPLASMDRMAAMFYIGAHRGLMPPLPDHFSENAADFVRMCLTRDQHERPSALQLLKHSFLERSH"}
{"data": "Series 1", "SMILES": "CN(C1COC1)C(C)(C)/C=C(\\C#N)C(=O)N1CCC[C@H]1Cn1nc(-c2ccc(Oc3ccccc3)cc2F)c2c(N)ncnc21", "observed": "kinase activity"}
{"target": "Rhodopsin kinase GRK7 (GRK7, Homo sapiens, UniProt Q8WTQ7)", "setting": "1 µM", "inhibition [%]": -10}
{"target": "Muscle, skeletal receptor tyrosine-protein kinase (MUSK, Homo sapiens, UniProt O15146)", "setting": "0.1 µM", "inhibition [%]": 9}
{"target": "Casein kinase I isoform gamma-3 (CSNK1G3, Homo sapiens, UniProt Q9Y6M4)", "setting": "0.1 µM", "inhibition [%]": 7}
{"target": "cAMP-dependent protein kinase catalytic subunit beta (PRKACB, Homo sapiens, UniProt P22694)", "setting": "1 µM", "inhibition [%]": 11}
{"target": "Cyclin-dependent kinase 2 (CDK2, Homo sapiens, UniProt P24941)", "setting": "0.1 µM", "inhibition [%]": 9}
{"target": "Hepatocyte growth factor receptor (MET, Homo sapiens, UniProt P08581)", "setting": "1 µM", "inhibition [%]": 0}
{"target": "Dual specificity protein kinase CLK4 (CLK4, Homo sapiens, UniProt Q9HAZ1)", "setting": "1 µM", "inhibition [%]": -2}
{"target": "Protein kinase C beta type, isoform beta-I (PRKCB, Homo sapiens, UniProt P05771)", "setting": "0.1 µM", "inhibition [%]": 5}
{"target": "Serine/threonine-protein kinase PAK 4 (PAK4, Homo sapiens, UniProt O96013)", "setting": "1 µM", "inhibition [%]": -7}
{"target": "Cyclin-dependent kinase 4, with cyclin D (CDK4, Homo sapiens, UniProt P11802)", "setting": "0.1 µM", "inhibition [%]": 2}
{"target": "Ribosomal protein S6 kinase beta-1 (RPS6KB1, Homo sapiens, UniProt P23443)", "setting": "0.1 µM", "inhibition [%]": 3}
{"target": "Serine/threonine-protein kinase PAK 5 (PAK5, Homo sapiens, UniProt Q9P286)", "setting": "0.1 µM", "inhibition [%]": 4}
{"target": "Aurora kinase C (AURKC, Homo sapiens, UniProt Q9UQB9)", "setting": "0.1 µM", "inhibition [%]": -2}
{"target": "Testis-specific serine/threonine-protein kinase 2 (TSSK2, Homo sapiens, UniProt Q96PF2)", "setting": "1 µM", "inhibition [%]": 0}
{"data": "Series 2", "Compound": "CN1CCC[C@H]1COc1nc2c(c(N3CCN(C(=O)C4CC4)[C@@H](CC#N)C3)n1)CCN(c1cccc3cccc(Cl)c13)C2", "observed": "binding", "mode": "competitor", "method": "NanoBRET", "cells": "HEK293", "KRAS G12D": "GTPase KRas (KRAS, Homo sapiens, UniProt P01116, G12D)", "KRAS Q61R": "GTPase KRas (KRAS, Homo sapiens, UniProt P01116, Q61R)"}
{"target": "KRAS G12D", "setting": "1.24 µM", "normalized BRET": "83.4% and 94.3% and 97.7%"}
{"target": "KRAS Q61R", "setting": "5.08 nM", "normalized BRET": "91.6% and 99.9% and 87.9%"}
{"target": "KRAS Q61R", "setting": "45.7 nM", "normalized BRET": "88.2% and 98.4% and 98.6%"}
{"target": "KRAS G12D", "setting": "33.3 µM", "normalized BRET": "39.4% and 31.8% and 29%"}
{"target": "GTPase KRas (KRAS, Homo sapiens, UniProt P01116, Q61H)", "setting": "11.1 µM", "normalized BRET": "18.7% and 26.5% and 21.8%"}
{"target": "GTPase KRas (KRAS, Homo sapiens, UniProt P01116, G13D)", "setting": "3.7 µM", "normalized BRET": "42.8% and 43.4% and 38.7%"}
{"target": "GTPase KRas (KRAS, Homo sapiens, UniProt P01116, Q61L)", "setting": "15.2 nM", "normalized BRET": "90.4% and 93.6% and 88%"}
{"data": "Series 3", "SMILES": "CC[C@@]1(c2ccccc2)C2=C(CC(C)(C)CC2=O)Nc2n[nH]cc21", "concentration": "1 µM"}
{"target": "Protein-tyrosine kinase 2-beta (PTK2B, Homo sapiens, UniProt Q14289)", "test": "binding, competition with immobilised ligand", "remaining binding [%]": 100}
{"target": "Death-associated protein kinase 1 (DAPK1, Homo sapiens, UniProt P53355)", "test": "kinase binding, KINOMEscan", "how to read": "relative to: DMSO control", "remaining binding [%]": 68}
{"target": "Serine/threonine-protein kinase pim-3 (PIM3, Homo sapiens, UniProt Q86V86)", "test": "binding, competition with immobilised ligand", "remaining binding [%]": 100}
{"target": "Mitogen-activated protein kinase kinase kinase 19 (MAP3K19, Homo sapiens, UniProt Q56UN5)", "test": "binding, competition with immobilised ligand", "remaining binding [%]": 98}
{"target": "Ephrin type-A receptor 6 (EPHA6, Homo sapiens, UniProt Q9UF33)", "test": "kinase binding, KINOMEscan", "how to read": "relative to: DMSO control", "remaining binding [%]": 100}
{"target": "Mast/stem cell growth factor receptor Kit, autoinhibited (KIT, Homo sapiens, UniProt P10721)", "test": "binding, competition with immobilised ligand", "remaining binding [%]": 95}
{"target": "Casein kinase I isoform alpha-like (CSNK1A1L, Homo sapiens, UniProt Q8N752)", "test": "binding, competition with immobilised ligand", "remaining binding [%]": 100}
{"target": "SRSF protein kinase 3 (SRPK3, Homo sapiens, UniProt Q9UPE1)", "test": "kinase binding, KINOMEscan", "how to read": "relative to: DMSO control", "remaining binding [%]": 100}
{"target": "Discoidin domain-containing receptor 2 (DDR2, Homo sapiens, UniProt Q16832)", "test": "kinase binding, KINOMEscan", "how to read": "relative to: DMSO control", "remaining binding [%]": 99}
{"target": "Casein kinase I isoform gamma-2 (CSNK1G2, Homo sapiens, UniProt P78368)", "test": "binding, competition with immobilised ligand", "remaining binding [%]": 99}
{"target": "LIM domain kinase 2 (LIMK2, Homo sapiens, UniProt P53671)", "test": "binding, competition with immobilised ligand", "remaining binding [%]": 98}
{"target": "Phosphatidylinositol 4,5-bisphosphate 3-kinase catalytic subunit alpha isoform (PIK3CA, Homo sapiens, UniProt P42336, C420R)", "test": "binding, competition with immobilised ligand", "remaining binding [%]": 76}
{"target": "Ephrin type-B receptor 2 (EPHB2, Homo sapiens, UniProt P29323)", "test": "binding, competition with immobilised ligand", "remaining binding [%]": 100}
{"target": "Ribosomal protein S6 kinase alpha-2, N-terminal kinase domain (RPS6KA2, Homo sapiens, UniProt Q15349)", "test": "kinase binding, KINOMEscan", "how to read": "relative to: DMSO control", "remaining binding [%]": 100}
{"target": "Interferon-induced, double-stranded RNA-activated protein kinase (EIF2AK2, Homo sapiens, UniProt P19525)", "test": "binding, competition with immobilised ligand", "remaining binding [%]": 83}
{"target": "Platelet-derived growth factor receptor beta (PDGFRB, Homo sapiens, UniProt P09619)", "test": "kinase binding, KINOMEscan", "how to read": "relative to: DMSO control", "remaining binding [%]": 100}
{"target": "Phosphatidylinositol 4,5-bisphosphate 3-kinase catalytic subunit alpha isoform (PIK3CA, Homo sapiens, UniProt P42336, H1047L)", "test": "binding, competition with immobilised ligand", "remaining binding [%]": 100}
{"target": "Fibroblast growth factor receptor 1 (FGFR1, Homo sapiens, UniProt P11362)", "test": "binding, competition with immobilised ligand", "remaining binding [%]": 93}
{"target": "Serine/threonine-protein kinase mTOR (MTOR, Homo sapiens, UniProt P42345)", "test": "binding, competition with immobilised ligand", "remaining binding [%]": 67}
{"target": "Mitogen-activated protein kinase 1 (MAPK1, Homo sapiens, UniProt P28482)", "test": "binding, competition with immobilised ligand", "remaining binding [%]": 100}
{"target": "Hepatocyte growth factor receptor (MET, Homo sapiens, UniProt P08581, Y1235D)", "test": "binding, competition with immobilised ligand", "remaining binding [%]": 100}
{"target": "Rhodopsin kinase GRK7 (GRK7, Homo sapiens, UniProt Q8WTQ7)", "test": "binding, competition with immobilised ligand", "remaining binding [%]": 100}
{"target": "Tyrosine-protein kinase JAK2, JH1 (JAK2, Homo sapiens, UniProt O60674)", "test": "binding, competition with immobilised ligand", "remaining binding [%]": 76}
{"data": "Series 4", "Compound": "C[C@@H]1CN(c2ccc(-c3cc(C(=O)NCCOCCOCCOCCOCCNC(=O)Cn4cc(-c5[nH]cc(C(=O)N[C@@H](CC(N)=O)c6ccc(F)c(Cl)c6)c5-c5ccc(Cl)cc5F)cn4)ccc3F)cc2NC(=O)c2c[nH]c(=O)cc2C(F)(F)F)C[C@H](C)N1C", "observed": "thermal unfolding", "method": "differential scanning fluorimetry", "concentration": "5.5 µM", "direction": "higher = more unfolded", "DCAF1": "DDB1- and CUL4-associated factor 1 (DCAF1, Homo sapiens, UniProt Q9Y4B6)", "WDR5": "WD repeat-containing protein 5 (WDR5, Homo sapiens, UniProt P61964)", "chain of UniProt Q9Y4B6 (whole entry, looked up)": "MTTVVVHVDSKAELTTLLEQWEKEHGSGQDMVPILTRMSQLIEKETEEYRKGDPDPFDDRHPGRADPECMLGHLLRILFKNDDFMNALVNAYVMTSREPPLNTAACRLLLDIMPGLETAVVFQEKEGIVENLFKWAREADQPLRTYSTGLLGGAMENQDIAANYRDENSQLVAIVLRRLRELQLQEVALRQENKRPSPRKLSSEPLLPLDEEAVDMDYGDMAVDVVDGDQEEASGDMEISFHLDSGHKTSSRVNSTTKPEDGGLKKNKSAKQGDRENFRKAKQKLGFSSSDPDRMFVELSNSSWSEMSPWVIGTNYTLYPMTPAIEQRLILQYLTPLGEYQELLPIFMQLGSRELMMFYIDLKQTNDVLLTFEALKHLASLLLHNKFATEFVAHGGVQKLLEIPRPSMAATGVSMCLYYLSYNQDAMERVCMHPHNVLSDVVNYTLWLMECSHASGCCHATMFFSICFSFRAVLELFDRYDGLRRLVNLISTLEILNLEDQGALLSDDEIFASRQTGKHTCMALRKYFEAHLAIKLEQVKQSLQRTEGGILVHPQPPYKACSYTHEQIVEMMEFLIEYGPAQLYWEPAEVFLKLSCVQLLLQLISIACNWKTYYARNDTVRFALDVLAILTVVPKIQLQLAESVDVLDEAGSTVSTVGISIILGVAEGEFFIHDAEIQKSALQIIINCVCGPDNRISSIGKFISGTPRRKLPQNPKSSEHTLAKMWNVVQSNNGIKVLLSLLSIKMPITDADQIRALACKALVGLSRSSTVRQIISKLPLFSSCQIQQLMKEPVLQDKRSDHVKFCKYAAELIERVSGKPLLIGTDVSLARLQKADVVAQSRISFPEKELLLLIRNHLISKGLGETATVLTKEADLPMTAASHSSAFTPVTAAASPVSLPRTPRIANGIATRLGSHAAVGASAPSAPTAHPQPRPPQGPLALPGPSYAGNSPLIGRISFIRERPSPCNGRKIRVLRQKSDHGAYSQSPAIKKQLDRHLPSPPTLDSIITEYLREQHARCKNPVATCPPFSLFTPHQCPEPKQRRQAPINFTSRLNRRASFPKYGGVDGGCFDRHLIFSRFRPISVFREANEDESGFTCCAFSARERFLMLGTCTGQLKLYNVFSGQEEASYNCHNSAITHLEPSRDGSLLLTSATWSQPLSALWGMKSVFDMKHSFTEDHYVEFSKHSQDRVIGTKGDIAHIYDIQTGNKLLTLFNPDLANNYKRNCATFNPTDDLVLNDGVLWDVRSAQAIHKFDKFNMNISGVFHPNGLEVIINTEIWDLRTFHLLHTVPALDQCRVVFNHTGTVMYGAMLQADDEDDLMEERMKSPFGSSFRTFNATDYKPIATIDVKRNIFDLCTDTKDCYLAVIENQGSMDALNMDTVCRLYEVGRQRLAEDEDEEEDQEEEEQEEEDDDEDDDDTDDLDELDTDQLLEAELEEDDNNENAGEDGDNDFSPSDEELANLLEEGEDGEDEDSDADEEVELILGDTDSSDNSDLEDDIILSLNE"}
{"target": "DCAF1", "setting": "71.21 °C", "SYPRO Orange fluorescence": "53200 a.u."}
{"target": "WDR5", "setting": "42.2 °C", "SYPRO Orange fluorescence": "14200 a.u."}
{"target": "DCAF1", "setting": "48.8 °C", "SYPRO Orange fluorescence": "13800 a.u."}
{"target": "DCAF1", "setting": "67.01 °C", "SYPRO Orange fluorescence": "56700 a.u."}
{"target": "WDR5", "setting": "93.21 °C", "SYPRO Orange fluorescence": "40000 a.u."}
{"target": "WDR5", "setting": "48 °C", "SYPRO Orange fluorescence": "14400 a.u."}
{"target": "DCAF1", "setting": "32.4 °C", "SYPRO Orange fluorescence": "8240 a.u."}
